Measurements of several laboratories.
Every numbered part comes from another study and shows a few of its results, in no order. “And” joins repeats or separate records; there may be more than shown.
Sequence of UniProt Q9HBY8 (whole entry, looked up): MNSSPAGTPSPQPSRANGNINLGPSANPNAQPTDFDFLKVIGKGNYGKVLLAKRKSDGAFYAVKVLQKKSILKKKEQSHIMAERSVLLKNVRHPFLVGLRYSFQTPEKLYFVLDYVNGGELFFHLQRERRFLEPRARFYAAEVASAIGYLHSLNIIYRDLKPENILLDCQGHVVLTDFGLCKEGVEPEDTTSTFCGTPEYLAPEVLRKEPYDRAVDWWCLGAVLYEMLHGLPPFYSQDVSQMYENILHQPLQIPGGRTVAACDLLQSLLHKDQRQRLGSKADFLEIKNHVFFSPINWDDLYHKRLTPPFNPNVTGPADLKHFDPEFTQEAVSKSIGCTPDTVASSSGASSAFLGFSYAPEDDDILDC
Sequence of UniProt P41240 (whole entry, looked up): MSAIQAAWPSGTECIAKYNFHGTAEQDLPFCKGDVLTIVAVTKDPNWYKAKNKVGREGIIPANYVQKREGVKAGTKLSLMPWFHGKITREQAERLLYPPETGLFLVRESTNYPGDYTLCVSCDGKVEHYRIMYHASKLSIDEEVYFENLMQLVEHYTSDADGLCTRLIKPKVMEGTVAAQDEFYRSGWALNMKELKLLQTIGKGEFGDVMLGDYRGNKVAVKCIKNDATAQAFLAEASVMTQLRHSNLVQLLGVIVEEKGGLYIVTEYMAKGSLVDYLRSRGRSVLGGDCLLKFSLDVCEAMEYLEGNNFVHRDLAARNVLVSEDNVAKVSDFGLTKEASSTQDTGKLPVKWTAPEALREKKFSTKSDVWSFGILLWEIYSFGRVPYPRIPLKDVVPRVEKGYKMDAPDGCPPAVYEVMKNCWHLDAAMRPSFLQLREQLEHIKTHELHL
Sequence of UniProt Q8WU08 (whole entry, looked up): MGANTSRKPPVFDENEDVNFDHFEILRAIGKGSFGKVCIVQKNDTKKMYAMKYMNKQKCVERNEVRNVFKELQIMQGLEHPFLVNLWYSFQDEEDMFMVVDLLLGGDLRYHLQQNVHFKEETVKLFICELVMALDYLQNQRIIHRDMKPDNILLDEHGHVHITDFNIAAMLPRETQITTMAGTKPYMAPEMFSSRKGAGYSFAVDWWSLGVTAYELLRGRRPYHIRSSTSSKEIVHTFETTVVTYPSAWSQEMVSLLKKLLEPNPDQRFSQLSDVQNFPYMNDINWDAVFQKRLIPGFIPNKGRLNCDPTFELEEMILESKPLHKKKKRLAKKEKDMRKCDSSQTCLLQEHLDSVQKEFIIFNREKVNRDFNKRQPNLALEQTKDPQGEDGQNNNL
Sequence of UniProt Q9H2K8 (whole entry, looked up): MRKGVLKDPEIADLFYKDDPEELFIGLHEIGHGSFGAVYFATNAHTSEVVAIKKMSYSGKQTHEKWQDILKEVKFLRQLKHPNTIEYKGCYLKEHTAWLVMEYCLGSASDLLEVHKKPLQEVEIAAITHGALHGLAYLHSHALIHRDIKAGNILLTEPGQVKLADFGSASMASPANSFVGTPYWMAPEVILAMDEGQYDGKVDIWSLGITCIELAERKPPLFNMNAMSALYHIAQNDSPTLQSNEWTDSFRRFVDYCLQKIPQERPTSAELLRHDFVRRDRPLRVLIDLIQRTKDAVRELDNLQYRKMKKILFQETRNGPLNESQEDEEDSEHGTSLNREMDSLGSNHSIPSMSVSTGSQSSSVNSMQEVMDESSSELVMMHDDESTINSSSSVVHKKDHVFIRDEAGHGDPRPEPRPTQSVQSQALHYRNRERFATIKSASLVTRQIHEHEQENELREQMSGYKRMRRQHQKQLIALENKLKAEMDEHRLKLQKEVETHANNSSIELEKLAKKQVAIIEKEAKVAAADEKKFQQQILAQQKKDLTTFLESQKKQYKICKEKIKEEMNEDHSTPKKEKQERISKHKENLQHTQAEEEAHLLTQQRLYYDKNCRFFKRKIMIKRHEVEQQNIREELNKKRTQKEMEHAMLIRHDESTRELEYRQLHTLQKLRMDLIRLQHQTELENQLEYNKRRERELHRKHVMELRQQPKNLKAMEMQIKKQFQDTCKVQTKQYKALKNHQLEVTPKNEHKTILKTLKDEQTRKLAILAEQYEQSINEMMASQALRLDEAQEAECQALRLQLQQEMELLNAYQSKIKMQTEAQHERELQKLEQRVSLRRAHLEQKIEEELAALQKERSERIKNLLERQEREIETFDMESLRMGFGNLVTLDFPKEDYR
Sequence of UniProt P19525 (whole entry, looked up): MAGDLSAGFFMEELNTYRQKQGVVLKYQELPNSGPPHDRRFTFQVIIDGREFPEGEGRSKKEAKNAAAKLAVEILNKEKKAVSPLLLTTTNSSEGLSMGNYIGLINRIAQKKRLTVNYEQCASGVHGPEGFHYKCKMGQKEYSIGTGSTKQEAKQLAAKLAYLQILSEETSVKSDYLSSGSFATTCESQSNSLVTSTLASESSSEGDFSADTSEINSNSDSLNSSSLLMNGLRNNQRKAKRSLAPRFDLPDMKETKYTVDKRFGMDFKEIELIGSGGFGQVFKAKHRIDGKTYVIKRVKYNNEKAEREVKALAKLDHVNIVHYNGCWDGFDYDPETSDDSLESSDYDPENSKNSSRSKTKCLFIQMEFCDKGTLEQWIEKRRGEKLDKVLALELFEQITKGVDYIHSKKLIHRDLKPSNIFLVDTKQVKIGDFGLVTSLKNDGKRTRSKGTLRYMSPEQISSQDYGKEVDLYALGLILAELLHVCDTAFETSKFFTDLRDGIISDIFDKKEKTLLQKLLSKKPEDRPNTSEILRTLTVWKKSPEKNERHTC
Sequence of UniProt Q02156 (whole entry, looked up): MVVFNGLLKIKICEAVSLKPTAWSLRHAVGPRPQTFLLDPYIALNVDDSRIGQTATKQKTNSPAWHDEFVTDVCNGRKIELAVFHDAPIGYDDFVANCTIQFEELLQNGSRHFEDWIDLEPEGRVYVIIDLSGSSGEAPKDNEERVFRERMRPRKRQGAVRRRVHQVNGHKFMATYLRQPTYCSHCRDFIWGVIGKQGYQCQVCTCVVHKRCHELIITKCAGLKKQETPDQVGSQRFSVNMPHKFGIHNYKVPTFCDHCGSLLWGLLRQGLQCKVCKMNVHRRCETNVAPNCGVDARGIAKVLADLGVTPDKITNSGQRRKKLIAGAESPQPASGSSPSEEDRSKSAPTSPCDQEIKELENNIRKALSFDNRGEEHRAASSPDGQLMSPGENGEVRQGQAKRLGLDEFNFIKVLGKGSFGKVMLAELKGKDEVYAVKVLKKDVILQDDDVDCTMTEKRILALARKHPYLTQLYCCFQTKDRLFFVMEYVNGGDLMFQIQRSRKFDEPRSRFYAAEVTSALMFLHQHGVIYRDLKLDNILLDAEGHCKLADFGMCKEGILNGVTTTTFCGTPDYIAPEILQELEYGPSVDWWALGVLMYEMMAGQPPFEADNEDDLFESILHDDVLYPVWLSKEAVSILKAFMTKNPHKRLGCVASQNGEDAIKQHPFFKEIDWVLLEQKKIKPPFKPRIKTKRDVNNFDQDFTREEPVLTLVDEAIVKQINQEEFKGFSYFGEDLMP

Sample 1
Target: Calcium/calmodulin-dependent protein kinase type II subunit alpha (CAMK2A, Homo sapiens, UniProt Q9UQM7)
Sequence of UniProt Q9UQM7 (whole entry, looked up): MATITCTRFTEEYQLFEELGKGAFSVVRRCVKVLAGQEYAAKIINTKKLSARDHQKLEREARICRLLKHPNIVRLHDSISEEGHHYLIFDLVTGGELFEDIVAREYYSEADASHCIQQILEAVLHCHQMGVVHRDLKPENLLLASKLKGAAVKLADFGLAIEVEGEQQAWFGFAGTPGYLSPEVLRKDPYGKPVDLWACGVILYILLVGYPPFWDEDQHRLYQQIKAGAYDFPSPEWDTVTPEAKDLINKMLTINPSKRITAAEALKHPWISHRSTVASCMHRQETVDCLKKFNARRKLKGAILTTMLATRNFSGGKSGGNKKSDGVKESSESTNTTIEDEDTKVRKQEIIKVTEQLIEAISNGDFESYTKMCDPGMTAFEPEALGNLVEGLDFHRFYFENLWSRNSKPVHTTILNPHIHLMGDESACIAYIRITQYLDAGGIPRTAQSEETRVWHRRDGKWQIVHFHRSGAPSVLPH
Effect on: enzyme activity
Action: inhibitor
Tested at: 10 µM
Measurement: inhibition
CC(CN)C(=O)O (stereo not drawn): 13%
CC(=O)NCC(=O)O: 8%
C[C@@]12C[C@@]3(O)O[C@@H](O1)[C@]1(COC(=O)c4ccccc4)[C@H]3C[C@@]12O[C@@H]1O[C@H](COC(=O)c2ccccc2)[C@@H](O)[C@H](O)[C@H]1O: 11%
CCCNC(C)C(=O)Nc1ccccc1C (stereo not drawn): -10%
NCc1ccccc1CC(=O)N[C@@H]1C(=O)N2C(C(=O)O)=C(CSc3nnnn3CC(=O)O)CS[C@H]12: 0%
C=C(C)C(=O)Cc1c(OC)ccc2ccc(=O)oc12: 23%
COc1cc(O)c2c(=O)c(OC)c(-c3ccc(OC)c(OC)c3)oc2c1: 24%
COC(=O)[C@@H]1CC2=CC(=O)CC[C@]2(C)[C@@]23O[C@@H]2C[C@@]2(C)[C@@H](CC[C@@]24CCC(=O)O4)[C@H]13: 1%
C[C@@H]1[C@H]2[C@H](O[C@@H]3O[C@H](CO)[C@@H](O)[C@H](O)[C@H]3O)OC=C(C(=O)O)[C@H]2C[C@@H]1O: -13%
CCCCC[C@H](O)/C=C/[C@H]1[C@H](O)CC(=O)[C@@H]1C/C=C\CCCC(=O)O: 37%
O=C(O)CSCC(=O)NC1CCSC1=O (stereo not drawn): 0%
C[C@H](CCC(=O)NCCS(=O)(=O)O)[C@H]1CC[C@H]2[C@@H]3CC[C@@H]4C[C@H](O)CC[C@]4(C)[C@H]3CC[C@]12C: -7%
O=C(O)c1ccccc1C(=O)O: -1%
C=C1C(=O)O[C@@H]2[C@H]3C(CO)=CC(=O)C3=C(C)C[C@H](OC(=O)Cc3ccc(O)cc3)[C@@H]12: 11%
COc1cc(/C=C/C(=O)O[C@@H]2C[C@](O)(C(=O)O)C[C@@H](O)[C@H]2O)ccc1O: -5%

Sample 2
Compound: CC(C)C[C@@H]1NC(=O)[C@@H](N(C)C(=O)[C@H](CC2CCC2)NC(=O)[C@@H]2C[C@@H](F)CN2C(=O)C2(C(F)(F)F)CC(F)(F)C2)CCCCNC(=O)C2(CC2)NC(=O)[C@H](Cc2cc(Cl)ccc2Cl)N(C)C1=O
Measurement: cell count
NCI-H446; Vi-Cell counting; 20 nM, 3 days, without Mps1 inhibitor; reference: DMSO: 0.308 and 0.346
NCI-H446; Vi-Cell counting; 2 nM, 3 days, without Mps1 inhibitor; reference: DMSO: 0.769 and 0.725
NCI-H82; Vi-Cell counting; 60 nM, 6 days; reference: DMSO: 1.02 and 0.86 and 1.08
NCI-H446 sgCtrl; dose-response; 62.5 nM, 6 d; reference: DMSO-treated: 0.382 and 0.334 and 0.296
NCI-H446 sgCtrl; dose-response; 125 nM, 6 d; reference: DMSO-treated: 0.147 and 0.101 and 0.141
A549; Vi-Cell counting; 60 nM, 6 days; reference: DMSO: 0.964 and 0.948 and 0.841
NCI-H446; 20 nM, 6 days; reference: DMSO: 0.438 and 0.401 and 0.448
NCI-H1299; Vi-Cell counting; 600 nM, 6 days; reference: DMSO: 0.646 and 0.549 and 0.587
NCI-H446; Vi-Cell counting; 6 nM, 3 days, without Mps1 inhibitor; reference: DMSO: 0.56 and 0.487
HCC4006; Vi-Cell counting; 20 nM, 6 days; reference: DMSO: 0.992 and 1.04 and 0.872
NCI-H82; Vi-Cell counting; 20 nM, 6 days; reference: DMSO: 0.91 and 1.1 and 1.19

Sample 3
SMILES: O=C1Cc2c([nH]c3ccc(Br)cc23)-c2ccccc2N1
Effect on: enzyme activity
Action: inhibitor
Tested at: 0.5 µM
Reference: control
Measurement: remaining activity
Protein kinase C gamma type (PRKCG, Homo sapiens, UniProt P05129): 93.8%
Protein kinase C epsilon type (PRKCE, Homo sapiens, UniProt Q02156): 96.9%
Tyrosine-protein kinase CSK (CSK, Homo sapiens, UniProt P41240): 88%
Ephrin type-B receptor 2 (EPHB2, Homo sapiens, UniProt P29323): 95.5%
Macrophage colony-stimulating factor 1 receptor (CSF1R, Homo sapiens, UniProt P07333): 92.6%
Serine/threonine-protein kinase pim-2 (PIM2, Homo sapiens, UniProt Q9P1W9): 104%
SRSF protein kinase 3 (SRPK3, Homo sapiens, UniProt Q9UPE1): 100%
NUAK family SNF1-like kinase 1 (NUAK1, Homo sapiens, UniProt O60285): 14.6%
Myosin light chain kinase, smooth muscle (MYLK, Homo sapiens, UniProt Q15746): 96.3%
Aurora kinase C (AURKC, Homo sapiens, UniProt Q9UQB9): 90.9%
Fibroblast growth factor receptor 4 (FGFR4, Homo sapiens, UniProt P22455): 113%
Ribosomal protein S6 kinase alpha-1 (RPS6KA1, Homo sapiens, UniProt Q15418): 90.8%
Ephrin type-A receptor 7 (EPHA7, Homo sapiens, UniProt Q15375): 101%
Receptor-type tyrosine-protein kinase FLT3 (FLT3, Homo sapiens, UniProt P36888): 47.7%
Serine/threonine-protein kinase Sgk1 (SGK1, Homo sapiens, UniProt O00141): 107%
Ribosomal protein S6 kinase beta-1 (RPS6KB1, Homo sapiens, UniProt P23443): 103%
G protein-coupled receptor kinase 6 (GRK6, Homo sapiens, UniProt P43250): 105%
Glycogen synthase kinase-3 alpha (GSK3A, Homo sapiens, UniProt P49840): 5.87%
Serine/threonine-protein kinase PAK 2 (PAK2, Homo sapiens, UniProt Q13177): 95.5%
Cytoplasmic tyrosine-protein kinase BMX (BMX, Homo sapiens, UniProt P51813): 99.6%
Beta-adrenergic receptor kinase 1 (GRK2, Homo sapiens, UniProt P25098): 103%

Sample 4
Compound: O=C(Nc1cccnn1)N1CCC(=Cc2cccc(Oc3ccc(C(F)(F)F)cn3)c2)CC1
Tested at: 1 µM
Measurement: remaining binding
Cyclin-dependent kinase 14 (CDK14, Homo sapiens, UniProt O94921); cell-free assay, competition with immobilised ligand: 89%
Serine/threonine-protein kinase Sgk2 (SGK2, Homo sapiens, UniProt Q9HBY8); cell-free assay, competition with immobilised ligand: 100%
MAP kinase-activated protein kinase 5 (MAPKAPK5, Homo sapiens, UniProt Q8IW41); cell-free assay, competition with immobilised ligand: 100%
Tyrosine-protein kinase ABL2 (ABL2, Homo sapiens, UniProt P42684); cell-free assay, competition with immobilised ligand: 99%
Receptor-type tyrosine-protein kinase FLT3 (FLT3, Homo sapiens, UniProt P36888, ITD); cell-free assay, competition with immobilised ligand: 100%
Receptor-type tyrosine-protein kinase FLT3 (FLT3, Homo sapiens, UniProt P36888); cell-free assay, competition with immobilised ligand: 100%
Serine/threonine-protein kinase SIK1 (SIK1, Homo sapiens, UniProt P57059); competition binding: 100%
Cyclin-dependent kinase 4, with cyclin D3 (CDK4, Homo sapiens, UniProt P11802); cell-free assay, competition with immobilised ligand: 96%
Serine/threonine-protein kinase 32A (STK32A, Homo sapiens, UniProt Q8WU08); cell-free assay, competition with immobilised ligand: 100%
MAP kinase-activated protein kinase 2 (MAPKAPK2, Homo sapiens, UniProt P49137); cell-free assay, competition with immobilised ligand: 87%
Epidermal growth factor receptor (EGFR, Homo sapiens, UniProt P00533, del747-752/P753S); cell-free assay, competition with immobilised ligand: 68%
Dual serine/threonine and tyrosine protein kinase (DSTYK, Homo sapiens, UniProt Q6XUX3); cell-free assay, competition with immobilised ligand: 69%
Serine/threonine-protein kinase WNK4 (WNK4, Homo sapiens, UniProt Q96J92); cell-free assay, competition with immobilised ligand: 96%
Cyclin-dependent kinase 2 (CDK2, Homo sapiens, UniProt P24941); cell-free assay, competition with immobilised ligand: 100%
Receptor-interacting serine/threonine-protein kinase 4 (RIPK4, Homo sapiens, UniProt P57078); cell-free assay, competition with immobilised ligand: 100%
MAP kinase-interacting serine/threonine-protein kinase 1 (MKNK1, Homo sapiens, UniProt Q9BUB5); cell-free assay, competition with immobilised ligand: 100%
Proto-oncogene tyrosine-protein kinase receptor Ret (RET, Homo sapiens, UniProt P07949, M918T); cell-free assay, competition with immobilised ligand: 80%
Tyrosine-protein kinase Lyn (LYN, Homo sapiens, UniProt P07948); cell-free assay, competition with immobilised ligand: 100%
Dual specificity mitogen-activated protein kinase kinase 6 (MAP2K6, Homo sapiens, UniProt P52564); cell-free assay, competition with immobilised ligand: 100%
Interleukin-1 receptor-associated kinase 3 (IRAK3, Homo sapiens, UniProt Q9Y616); cell-free assay, competition with immobilised ligand: 86%
Serine/threonine-protein kinase TAO3 (TAOK3, Homo sapiens, UniProt Q9H2K8); binding, competition with immobilised ligand: 42%
Mast/stem cell growth factor receptor Kit (KIT, Homo sapiens, UniProt P10721, D816H); cell-free assay, competition with immobilised ligand: 100%
Interferon-induced, double-stranded RNA-activated protein kinase (EIF2AK2, Homo sapiens, UniProt P19525); cell-free assay, competition with immobilised ligand: 100%
Leukocyte tyrosine kinase receptor (LTK, Homo sapiens, UniProt P29376); cell-free assay, competition with immobilised ligand: 74%
Homeodomain-interacting protein kinase 3 (HIPK3, Homo sapiens, UniProt Q9H422); cell-free assay, competition with immobilised ligand: 100%
